Results pooled from the literature.
Parts stem from different laboratories: compare values within a part only.
UniProt P16234, sequence (whole entry, looked up): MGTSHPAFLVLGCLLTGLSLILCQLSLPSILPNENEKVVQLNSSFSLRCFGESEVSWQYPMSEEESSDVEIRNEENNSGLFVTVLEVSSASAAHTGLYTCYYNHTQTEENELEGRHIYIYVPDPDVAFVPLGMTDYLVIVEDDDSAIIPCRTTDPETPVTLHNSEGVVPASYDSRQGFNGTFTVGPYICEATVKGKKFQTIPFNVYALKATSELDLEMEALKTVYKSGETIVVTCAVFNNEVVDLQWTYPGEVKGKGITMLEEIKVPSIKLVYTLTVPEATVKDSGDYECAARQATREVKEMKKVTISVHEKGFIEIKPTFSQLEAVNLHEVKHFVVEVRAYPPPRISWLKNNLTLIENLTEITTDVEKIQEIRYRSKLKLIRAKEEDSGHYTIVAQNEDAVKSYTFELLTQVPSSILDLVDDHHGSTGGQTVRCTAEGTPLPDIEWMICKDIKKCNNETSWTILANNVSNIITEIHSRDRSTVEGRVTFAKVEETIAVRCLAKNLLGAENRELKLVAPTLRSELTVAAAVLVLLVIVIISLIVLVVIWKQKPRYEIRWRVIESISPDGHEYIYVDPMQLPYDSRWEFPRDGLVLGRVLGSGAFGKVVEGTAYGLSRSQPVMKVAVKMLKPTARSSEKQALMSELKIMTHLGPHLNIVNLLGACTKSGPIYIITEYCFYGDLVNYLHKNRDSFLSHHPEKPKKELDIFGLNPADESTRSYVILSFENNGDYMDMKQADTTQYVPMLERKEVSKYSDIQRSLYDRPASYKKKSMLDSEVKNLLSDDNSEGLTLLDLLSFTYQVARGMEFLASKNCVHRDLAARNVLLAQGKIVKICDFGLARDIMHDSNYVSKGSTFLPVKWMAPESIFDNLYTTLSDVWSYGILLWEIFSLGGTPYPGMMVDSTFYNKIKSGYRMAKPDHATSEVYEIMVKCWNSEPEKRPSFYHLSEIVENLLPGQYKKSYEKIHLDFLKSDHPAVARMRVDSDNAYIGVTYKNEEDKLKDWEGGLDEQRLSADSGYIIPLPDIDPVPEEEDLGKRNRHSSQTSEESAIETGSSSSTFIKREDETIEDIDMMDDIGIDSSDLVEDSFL

Study 1 — technique: RNA Bind-n-Seq; form: RNA; medium: in vitro; concentration: not given; baseline: input RNA pool; direction: higher = stronger binding
Target: RING finger protein unkempt homolog, zinc fingers 1-6, GST-SBP tag (UNK, Homo sapiens, UniProt Q9C0B0, residues 30-357)
Setting: RNA with constant flanks, human and mouse sites, ends assumed
All sequences stand within: GGGAGUUCUACAGUCCGACGAUC … CAACAGAGGAUUGAGCAUCA
Residues (chain): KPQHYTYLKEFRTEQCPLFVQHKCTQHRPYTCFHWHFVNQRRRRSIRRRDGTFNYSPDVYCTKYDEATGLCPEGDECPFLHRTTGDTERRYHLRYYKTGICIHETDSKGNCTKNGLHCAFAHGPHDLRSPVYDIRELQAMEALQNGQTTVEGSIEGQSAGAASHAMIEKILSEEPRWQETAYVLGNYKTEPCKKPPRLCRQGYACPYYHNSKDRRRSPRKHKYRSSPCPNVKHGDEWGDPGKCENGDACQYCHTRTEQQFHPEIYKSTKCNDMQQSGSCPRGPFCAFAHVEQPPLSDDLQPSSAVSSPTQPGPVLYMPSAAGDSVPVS
Strand	bound/input enrichment
UCAACAUCAGUACCCCGAUCAGUACCCCCUGCACCGCCCCCACCUCCACCGCCCACCUCGCUUUCCCAGCCACCCCCGCUGCUGAGGCCACCUCUGCCCACAGCUCCCACAUUGCUCCGC	1.32 ratio
UGACAAGGGCACUGCAGAGCCAUGCCUUUCCUUGACAUACAGAAAAAGCUGGGCAUCAGCCUGGACCGGCACUUUAUGUUCCUAAGCGCAGAACAGCCCUAUAAGAACGCCGCUCGGUGC	0.085 ratio
CAGGCUAUCUCUCAGCAGCACCUACAGGAAGCAGGUGCACGGGAGUGGAGCUCUCAGAGUGCAUCCAUGUCAGAGUCACUGUCUAUCCCUGCAUCCCUGAAUGAUGCAGCUUUGGCUCAA	0.0502 ratio
UGCCGGCUCUGUUUUUCUGUAAAUAAAUUUGCAUAUUUUGUAGGACUUUUAAUUGUAAUGAUAGAGAAAAAAACAAGGAAAACUAUUUAAUGAAAGCACGAUAUUUAUCUUUGGUAAAUG	2.05 ratio
CAUCUCUCAUUUUAUAUGUCCAGAAAUGGCUUUGAAUUUUAAGCAAUUACUAGUUUUAAUUAGCUCUGCCCUCAUGAAGUAUUAUUAUAAUUCACCAUAAACAGCUAUCUGUCUGAAUUA	50.7 ratio
CGAAGUGAAACGCUCGGCUGGUCGGCCUUGCUCUCGAUAUCGACCCCCGCAAACUUUACUCCUUAAUAAUCGGCUACGUCCGUUUCGUUGUCGGUAUCGGUCUUCAGCAACCAUGCUGGA	0.151 ratio
AAGUUUGGAUUUGAAAUUAGUUUUCCUGAAUUUUGUUUAAAGGGAGUCACACUUAAGAAUUUUAGUACUUCUAAUUUAAAUACUGACUUCCUUGCCAAAAAGAUCAUACCAUCAAAGGAU	0.549 ratio
CAUCUUAAAUUUUUGCUGGAAGUGGAGUCAUGAGACUAAAGAUAUCUCUUUUAAAAGAACCAAAGCAUAUCCUUUUAAUGCUUAUAAAUCUUAUUGGAUUUUCUUAAUUAUAGUAUUGUU	7.1 ratio

Study 2 — technique: RNA Bind-n-Seq; form: RNA; medium: in vitro; concentration: 1 µM; setting: whole 134-nt RNA, ends assumed; with: 150 mM KCl; baseline: input library; direction: higher = stronger binding
Target: Ras GTPase-activating protein-binding protein 1, C-terminal RGG region (G3BP1, Homo sapiens, UniProt Q13283)
UniProt Q13283, sequence (whole entry, looked up): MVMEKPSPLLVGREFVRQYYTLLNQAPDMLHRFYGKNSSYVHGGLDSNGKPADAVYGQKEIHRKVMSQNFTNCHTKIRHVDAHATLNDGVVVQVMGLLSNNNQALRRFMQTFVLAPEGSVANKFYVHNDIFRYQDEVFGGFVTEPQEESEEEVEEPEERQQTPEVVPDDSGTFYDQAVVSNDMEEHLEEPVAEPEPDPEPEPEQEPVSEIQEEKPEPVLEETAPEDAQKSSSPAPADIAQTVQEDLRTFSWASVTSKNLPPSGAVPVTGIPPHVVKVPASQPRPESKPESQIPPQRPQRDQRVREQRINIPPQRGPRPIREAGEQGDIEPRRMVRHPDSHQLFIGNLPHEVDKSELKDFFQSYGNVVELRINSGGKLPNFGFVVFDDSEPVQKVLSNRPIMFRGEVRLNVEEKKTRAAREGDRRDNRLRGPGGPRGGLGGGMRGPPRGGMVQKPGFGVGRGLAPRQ
All sequences stand within: GGGAGUUCUACAGUCCGACGAUC … UGGAAUUCUCGGGUGUCAAGG
Strand	log2 enrichment
CAAGUCCUGUGCUACACAUCGUAUGUACCGAAUCGGGGUUGGGGUUGGGGUUGGGAAAGUAUUAUGUUACGCCGUUCGGAUCUGCACUUC	2.47
GCAGGAAGUAAAAACAAAUGGAAAUGCUUCGGAUAGUGGCAGGGGUGGGGGUUGCUAAGGAAAGGGUGGGAUGGGUGUGGGUAAAGAGUU	1.14
UCCUGUGCUACACAUCGUAUGUACCGAAUCGGGUUUUUUUGGGUUUGGGAAAAAAAGGGAAAGUAUUAUGUUACGCCGUUCGGAUCUGCA	-0.801
UCAAGUCCUGUGCUACACAUCGUAUGUACCGAAUCGGUUUGGGUUUGGGGUUUGGAAAGUAUUAUGUUACGCCGUUCGGAUCUGCACUUC	-1.01
AGUCCUGUGCUACACAUCGUAUGUACCGAAUCAAACCCAAACCCCCCCAAAUUUAAAAAAGUAUUAUGUUACGCCGUUCGGAUCUGCACU	-1.01
ACCAUGCAGCUGGGCAUCUUUGGGAAGUGGGGCAAGGGGGGGAUAGGGAGGGGGGUAACACUUUGGGAACAGGUGGUCCCAGGUCGUUUC	-0.494
GCUUAUGUAGACAUGAGGAAGAUUGGCAGUAGCCGGGGAAUGGUUUCUGCAUACCCUCGACAGCUAGAGUCAUUAAUCCGCUUAGCAGAA	-0.503
CUGUGCUACACAUCGUAUGUACCGAAUCGGGGUUUUUUUGGGGAAAGGGGUUUUUUUGGGGAAAGUAUUAUGUUACGCCGUUCGGAUCUG	-0.0975

Mixed results
Substance	target	assay	system	setting	how to read	endpoint	result
C[C@@H](N)[C@H]1CC[C@H](C(=O)Nc2ccncc2)CC1	Platelet-derived growth factor receptor alpha (PDGFRA, Homo sapiens, UniProt P16234)	enzyme activity, inhibitor	–	0.5 µM	baseline: control	remaining activity	87.2%
PhoQ, residues 284 288 289 292 302 303 SSCLAV	PhoP, residues 12 14 15 18 19 NHFIF (Escherichia coli, UniProt P23836)	Sort-seq, measured: YFP reporter	E. coli	PhoQ-PhoP variant library, with: 10 µM Mg2+	baseline: high Mg2+ state, higher = stronger signaling	fold induction	4.18

For quick reference, copied from above (mixed results):
Substance	target	assay	system	setting	how to read	endpoint	result
C[C@@H](N)[C@H]1CC[C@H](C(=O)Nc2ccncc2)CC1	Platelet-derived growth factor receptor alpha (PDGFRA, Homo sapiens, UniProt P16234)	enzyme activity, inhibitor	–	0.5 µM	baseline: control	remaining activity	87.2%
